Literature values as cited in several papers.
Lines come from different studies, so protocols differ. Numbers after ± are the reported error.
Oprd1: Delta-type opioid receptor (Oprd1, Rattus norvegicus, UniProt P33533)
Chain of UniProt P33533 (whole entry, looked up): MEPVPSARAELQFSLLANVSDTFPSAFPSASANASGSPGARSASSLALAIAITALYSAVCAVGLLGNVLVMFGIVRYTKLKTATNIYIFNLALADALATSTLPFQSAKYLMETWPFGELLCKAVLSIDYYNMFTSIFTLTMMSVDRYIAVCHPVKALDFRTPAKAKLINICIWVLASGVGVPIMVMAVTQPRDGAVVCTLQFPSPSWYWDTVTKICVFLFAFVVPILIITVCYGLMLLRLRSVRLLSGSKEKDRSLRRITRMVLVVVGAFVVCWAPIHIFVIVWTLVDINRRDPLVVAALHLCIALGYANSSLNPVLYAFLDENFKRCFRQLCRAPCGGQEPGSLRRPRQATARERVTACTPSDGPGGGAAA
Chain of UniProt P19754 (whole entry, looked up): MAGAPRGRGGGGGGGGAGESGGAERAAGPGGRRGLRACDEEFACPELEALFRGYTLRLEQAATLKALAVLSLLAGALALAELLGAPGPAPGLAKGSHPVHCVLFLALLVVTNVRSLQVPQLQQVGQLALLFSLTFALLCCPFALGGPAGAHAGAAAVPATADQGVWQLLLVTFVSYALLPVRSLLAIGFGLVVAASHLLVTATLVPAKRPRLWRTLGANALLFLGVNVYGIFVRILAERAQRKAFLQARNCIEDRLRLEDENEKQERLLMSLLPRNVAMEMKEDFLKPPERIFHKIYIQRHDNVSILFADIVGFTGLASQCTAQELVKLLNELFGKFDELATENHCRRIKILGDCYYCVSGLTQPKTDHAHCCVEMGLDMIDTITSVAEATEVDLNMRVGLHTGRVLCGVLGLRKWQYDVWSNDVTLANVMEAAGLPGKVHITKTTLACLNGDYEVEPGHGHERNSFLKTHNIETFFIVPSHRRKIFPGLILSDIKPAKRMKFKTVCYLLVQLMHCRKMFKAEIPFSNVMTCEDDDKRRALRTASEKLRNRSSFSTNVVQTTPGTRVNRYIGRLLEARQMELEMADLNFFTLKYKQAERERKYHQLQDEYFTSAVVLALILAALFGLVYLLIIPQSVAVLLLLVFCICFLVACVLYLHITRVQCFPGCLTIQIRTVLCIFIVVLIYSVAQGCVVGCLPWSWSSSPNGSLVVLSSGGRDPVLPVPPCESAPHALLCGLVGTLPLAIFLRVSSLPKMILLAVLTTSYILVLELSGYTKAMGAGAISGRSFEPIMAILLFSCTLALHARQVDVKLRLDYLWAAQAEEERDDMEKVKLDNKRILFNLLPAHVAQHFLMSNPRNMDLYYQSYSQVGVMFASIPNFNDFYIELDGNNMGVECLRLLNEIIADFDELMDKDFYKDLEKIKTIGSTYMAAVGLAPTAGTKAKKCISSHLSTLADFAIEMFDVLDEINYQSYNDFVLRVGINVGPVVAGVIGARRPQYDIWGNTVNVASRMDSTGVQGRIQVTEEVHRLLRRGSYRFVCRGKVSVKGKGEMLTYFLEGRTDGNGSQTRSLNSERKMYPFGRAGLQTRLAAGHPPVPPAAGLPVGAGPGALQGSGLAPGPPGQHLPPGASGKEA
Chain of UniProt C7C422 (whole entry, looked up): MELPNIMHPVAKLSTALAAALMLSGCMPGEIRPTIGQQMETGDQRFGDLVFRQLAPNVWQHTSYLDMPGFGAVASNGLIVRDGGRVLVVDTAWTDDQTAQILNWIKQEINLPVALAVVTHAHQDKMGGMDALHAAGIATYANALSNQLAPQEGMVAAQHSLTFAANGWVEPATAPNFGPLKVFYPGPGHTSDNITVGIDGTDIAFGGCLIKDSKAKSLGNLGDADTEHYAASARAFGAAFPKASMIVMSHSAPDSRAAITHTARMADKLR
Chain of UniProt P35348 (whole entry, looked up): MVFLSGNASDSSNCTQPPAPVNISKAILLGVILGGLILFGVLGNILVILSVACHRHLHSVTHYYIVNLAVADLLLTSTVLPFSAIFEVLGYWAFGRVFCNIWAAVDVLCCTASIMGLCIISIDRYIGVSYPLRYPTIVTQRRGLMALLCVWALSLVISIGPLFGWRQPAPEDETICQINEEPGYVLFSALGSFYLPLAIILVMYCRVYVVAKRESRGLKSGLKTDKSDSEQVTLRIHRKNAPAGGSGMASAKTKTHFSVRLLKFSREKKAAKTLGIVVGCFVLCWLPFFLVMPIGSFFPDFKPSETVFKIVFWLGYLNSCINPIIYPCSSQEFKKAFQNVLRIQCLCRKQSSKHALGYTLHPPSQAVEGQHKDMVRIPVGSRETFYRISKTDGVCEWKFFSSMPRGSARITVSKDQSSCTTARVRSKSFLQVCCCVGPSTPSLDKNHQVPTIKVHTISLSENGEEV
Chain of UniProt P52699 (whole entry, looked up): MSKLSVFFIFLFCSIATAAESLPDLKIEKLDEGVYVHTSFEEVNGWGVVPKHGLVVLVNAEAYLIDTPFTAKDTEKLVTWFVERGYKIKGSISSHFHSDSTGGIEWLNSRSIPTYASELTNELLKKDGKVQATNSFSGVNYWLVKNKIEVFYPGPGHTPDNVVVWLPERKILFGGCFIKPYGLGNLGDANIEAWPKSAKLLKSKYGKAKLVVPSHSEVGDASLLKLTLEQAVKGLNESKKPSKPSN
Chain of UniProt P31652 (whole entry, looked up): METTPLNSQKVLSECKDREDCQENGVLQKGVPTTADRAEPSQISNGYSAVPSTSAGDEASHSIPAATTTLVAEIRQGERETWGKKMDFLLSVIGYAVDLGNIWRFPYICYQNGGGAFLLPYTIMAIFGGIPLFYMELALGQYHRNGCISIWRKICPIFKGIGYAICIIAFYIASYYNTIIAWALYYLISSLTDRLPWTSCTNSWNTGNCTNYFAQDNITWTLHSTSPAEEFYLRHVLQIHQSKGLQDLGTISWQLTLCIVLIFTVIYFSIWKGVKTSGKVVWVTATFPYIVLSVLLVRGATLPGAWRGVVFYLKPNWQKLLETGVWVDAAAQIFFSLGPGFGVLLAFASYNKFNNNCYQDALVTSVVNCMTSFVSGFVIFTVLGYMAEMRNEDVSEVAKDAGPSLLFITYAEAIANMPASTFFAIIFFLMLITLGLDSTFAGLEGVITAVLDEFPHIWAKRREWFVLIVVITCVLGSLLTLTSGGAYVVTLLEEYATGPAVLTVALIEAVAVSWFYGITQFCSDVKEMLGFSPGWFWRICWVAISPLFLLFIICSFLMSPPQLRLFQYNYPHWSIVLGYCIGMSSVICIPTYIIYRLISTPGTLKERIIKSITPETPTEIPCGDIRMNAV
Chain of UniProt Q8IM16 (whole entry, looked up): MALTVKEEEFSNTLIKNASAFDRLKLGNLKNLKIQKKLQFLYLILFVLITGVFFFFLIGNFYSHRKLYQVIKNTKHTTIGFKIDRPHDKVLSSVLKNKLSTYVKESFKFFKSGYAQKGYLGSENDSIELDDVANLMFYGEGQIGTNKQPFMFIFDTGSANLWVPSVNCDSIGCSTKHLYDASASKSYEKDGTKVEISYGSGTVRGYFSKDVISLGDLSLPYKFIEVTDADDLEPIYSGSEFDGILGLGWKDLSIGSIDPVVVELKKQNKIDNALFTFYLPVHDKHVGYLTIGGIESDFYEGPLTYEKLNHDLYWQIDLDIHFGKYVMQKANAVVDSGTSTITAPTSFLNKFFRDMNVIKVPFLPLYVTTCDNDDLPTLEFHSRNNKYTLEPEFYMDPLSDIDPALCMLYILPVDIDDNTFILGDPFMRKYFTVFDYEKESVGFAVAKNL

With Cc1cc(O)cc(C)c1C[C@H](N)C(=O)N[C@H](C)C(=O)N[C@@H](Cc1ccccc1)C(=O)N[C@@H](CCC(=O)O)C(=O)N[C@H](C(=O)N[C@H](C(=O)NCC(N)=O)C(C)C)C(C)C the Ki was 0.16 ± 0.03 nM (Oprd1; binding; rat brain synaptosomes).
With CCCC[C@@H](C(=O)N[C@@H](CC(=O)O)C(=O)N[C@@H](Cc1ccccc1)C(N)=O)N(C)C(=O)[C@@H](Cc1c[nH]c2ccccc12)NC(=O)CNC(=O)[C@@H](Cc1ccccc1)NC(=O)[C@@H](N)Cc1ccc(O)cc1 the Ki was 1100 nM (CCK1 receptor; binding).
With CC(=O)N[C@@H](Cc1ccccc1)C(=O)N[C@@H](Cc1ccccc1)C(=O)N[C@@H](Cc1ccccc1)C(=O)N[C@@H](CCCNC(=N)N)C(=O)N[C@@H](CC(C)C)C(=O)N[C@@H](CCCNC(=N)N)C(=O)N[C@@H](CCCNC(=N)N)C(=O)N[C@H](C)C(=O)N[C@@H](CCCNC(=N)N)C(=O)N1CCC[C@H]1C(=O)N[C@@H](CCCCN)C(N)=O the Ki was > 5000 nM (delta opioid receptor; binding).
C=CC(=O)N1CCC[C@@H](n2nc(-c3cn(C)c4ccccc34)c3c(N)ncnc32)C1 has a Ki of 19 ± 3.1 nM (EGFR (Homo sapiens, UniProt P00533, L858R)).
With CC1(C)SCCSC[C@@H](NC(=O)[C@@H](N)Cc2ccc(O)cc2)C(=O)N[C@@H](Cc2ccccc2)C(=O)N[C@H]1C(N)=O the Ki was 25 ± 1.5 nM (Oprd1; binding).
With OC(Cc1ccccc1)CN1CCN(CCSC(c2ccc(F)cc2)c2ccc(F)cc2)CC1 (centres unmarked) the Ki was 1770 ± 234 nM (Slc6a4 (Rattus norvegicus, UniProt P31652); binding; rat brain membranes).
O=C1N[C@@H](Cc2ccccc2)C(=O)N2CCC[C@@H]2C(=O)N[C@@H](Cc2ccccc2)C(=O)N[C@H]1Cc1c[nH]c2ccccc12 gave a Ki of 4150 ± 3020 nM (DOR opioid receptor; binding).
Cc1nc2cc(-c3cccc(C#N)c3)ccc2s1 has a Ki of 2100 nM (mGlu5 receptor; binding, radioligand binding).
N/C(=N\Cc1ccccc1)C(/N=N/c1ccccc1)C(=O)NCc1ccccc1 (centres unmarked) has a Ki of 37 nM (cannabinoid receptor CB2).
CC(C)[C@H](NC(=O)[C@@H]1CCCN1C(=O)[C@@H](N)CCCCN)C(=O)N[C@@H](CCC(=O)O)C(=O)N[C@H](CN[C@@H](CCCNC(=N)N)C(=O)N[C@@H](CCC(N)=O)C(=O)N[C@H](C(=O)O)[C@@H](C)O)Cc1ccccc1 has a Ki of 14 ± 2 nM (Aspartic protease PM4 (Plasmodium vivax, UniProt O60989)).
For CC1(C)S[C@H]2CS[C@H](CS)N2[C@@H]1C(=O)O, the Ki was 18000 ± 3000 nM (blaNDM-1 (Klebsiella pneumoniae, UniProt C7C422); inhibitor).
For Nc1ccccc1C(=O)O[C@H]1[C@@H](O)[C@H](n2cnc3c(=O)[nH]cnc32)O[C@@H]1COP(=O)(O)O, the Ki was 7400 ± 1200 nM (ADCY1 (Bos taurus, UniProt P19754); enzyme activity, inhibitor; Sf9 membranes; added: 5 mM MnCl2 and 100 µM forskolin).
CN[C@H](CC(C)C)C(=O)N[C@H]1C(=O)N[C@@H](CC(N)=O)C(=O)N[C@H]2C(=O)N[C@H]3C(=O)N[C@H](C(=O)N[C@H](C(=O)O)c4cc(O)cc(O)c4-c4cc3ccc4O)[C@H](O)c3ccc(c(Cl)c3)Oc3cc2cc(c3O[C@@H]2O[C@H](CO)[C@@H](O)[C@H](O)[C@H]2O[C@H]2C[C@](C)(NCc3ccc(-c4ccc(Cl)cc4)cc3)[C@H](O)[C@H](C)O2)Oc2ccc(cc2Cl)[C@H]1O has a half-life of 6.6 h (mouse, plasma; intravenous, 75 mg/kg (MTD)).
CC(C)C[C@H](NC(=O)[C@@H]1CCCN1C(=O)[C@@H](N)CCCCN)C(=O)N[C@@H](CCC(=O)O)C(=O)N[C@H](CN[C@@H](Cc1ccccc1)C(=O)N[C@@H](CCCNC(=N)N)C(=O)N[C@H](C(=O)O)C(C)C)Cc1ccccc1 gave a Ki of 0.09 ± 0.01 nM (Plasmepsin IV (PMIV, Plasmodium falciparum 3D7, UniProt Q8IM16)).
CC1=C(C)C(=O)OC(C(C)(O)C2(O)CCC3(O)C4CC5OC56C(O)C=CC(=O)C6(C)C4CCC32C)C1 (centres unmarked) gave an IC50 of 2950 nM (A549; cell growth).
Under “time to peak uptake”, O=C(OCC[18F])C1C2CCC(CC1c1ccc(/C=C\I)cc1)N2 (centres unmarked) is recorded as > 75 min (SERT; HRRT PET; awake rhesus monkey, thalamus).
O=C(NC1CCN(CCc2c[nH]c3ccccc23)CC1)c1ccccc1 has a Ki of 611 nM (ADRA1A (Homo sapiens, UniProt P35348); binding).
For O=C(O)[C@H]1CS[C@@H]2CS[C@@H](CS)N12, the Ki was 6000 ± 1000 nM (Metallo-beta-lactamase type 2 (Serratia marcescens, UniProt P52699); inhibitor).
The IC50 of CC1=C(C)C(=O)OC(C(C)(O)C2(O)CCC3(O)C4CC5OC56CC=CC(=O)C6(C)C4CCC32C)C1 (centres unmarked) is reported as 6580 nM (A549; cell growth).
With COC(=O)C1C(OC(c2ccc(Cl)cc2)c2ccc(Cl)cc2)CC2CCC1N2C (single isomer, unassigned) the Ki was 382 ± 37 nM (muscarinic M1 receptor).
